# Experimental data of several laboratories.
# Sequences of proteins named here, by UniProt entry; tags and fusion partners are left off. A change or cut given only in a name is not applied to a line headed by its entry. Residues count along the entry.
# UniProt Q02294, whole entry, looked up: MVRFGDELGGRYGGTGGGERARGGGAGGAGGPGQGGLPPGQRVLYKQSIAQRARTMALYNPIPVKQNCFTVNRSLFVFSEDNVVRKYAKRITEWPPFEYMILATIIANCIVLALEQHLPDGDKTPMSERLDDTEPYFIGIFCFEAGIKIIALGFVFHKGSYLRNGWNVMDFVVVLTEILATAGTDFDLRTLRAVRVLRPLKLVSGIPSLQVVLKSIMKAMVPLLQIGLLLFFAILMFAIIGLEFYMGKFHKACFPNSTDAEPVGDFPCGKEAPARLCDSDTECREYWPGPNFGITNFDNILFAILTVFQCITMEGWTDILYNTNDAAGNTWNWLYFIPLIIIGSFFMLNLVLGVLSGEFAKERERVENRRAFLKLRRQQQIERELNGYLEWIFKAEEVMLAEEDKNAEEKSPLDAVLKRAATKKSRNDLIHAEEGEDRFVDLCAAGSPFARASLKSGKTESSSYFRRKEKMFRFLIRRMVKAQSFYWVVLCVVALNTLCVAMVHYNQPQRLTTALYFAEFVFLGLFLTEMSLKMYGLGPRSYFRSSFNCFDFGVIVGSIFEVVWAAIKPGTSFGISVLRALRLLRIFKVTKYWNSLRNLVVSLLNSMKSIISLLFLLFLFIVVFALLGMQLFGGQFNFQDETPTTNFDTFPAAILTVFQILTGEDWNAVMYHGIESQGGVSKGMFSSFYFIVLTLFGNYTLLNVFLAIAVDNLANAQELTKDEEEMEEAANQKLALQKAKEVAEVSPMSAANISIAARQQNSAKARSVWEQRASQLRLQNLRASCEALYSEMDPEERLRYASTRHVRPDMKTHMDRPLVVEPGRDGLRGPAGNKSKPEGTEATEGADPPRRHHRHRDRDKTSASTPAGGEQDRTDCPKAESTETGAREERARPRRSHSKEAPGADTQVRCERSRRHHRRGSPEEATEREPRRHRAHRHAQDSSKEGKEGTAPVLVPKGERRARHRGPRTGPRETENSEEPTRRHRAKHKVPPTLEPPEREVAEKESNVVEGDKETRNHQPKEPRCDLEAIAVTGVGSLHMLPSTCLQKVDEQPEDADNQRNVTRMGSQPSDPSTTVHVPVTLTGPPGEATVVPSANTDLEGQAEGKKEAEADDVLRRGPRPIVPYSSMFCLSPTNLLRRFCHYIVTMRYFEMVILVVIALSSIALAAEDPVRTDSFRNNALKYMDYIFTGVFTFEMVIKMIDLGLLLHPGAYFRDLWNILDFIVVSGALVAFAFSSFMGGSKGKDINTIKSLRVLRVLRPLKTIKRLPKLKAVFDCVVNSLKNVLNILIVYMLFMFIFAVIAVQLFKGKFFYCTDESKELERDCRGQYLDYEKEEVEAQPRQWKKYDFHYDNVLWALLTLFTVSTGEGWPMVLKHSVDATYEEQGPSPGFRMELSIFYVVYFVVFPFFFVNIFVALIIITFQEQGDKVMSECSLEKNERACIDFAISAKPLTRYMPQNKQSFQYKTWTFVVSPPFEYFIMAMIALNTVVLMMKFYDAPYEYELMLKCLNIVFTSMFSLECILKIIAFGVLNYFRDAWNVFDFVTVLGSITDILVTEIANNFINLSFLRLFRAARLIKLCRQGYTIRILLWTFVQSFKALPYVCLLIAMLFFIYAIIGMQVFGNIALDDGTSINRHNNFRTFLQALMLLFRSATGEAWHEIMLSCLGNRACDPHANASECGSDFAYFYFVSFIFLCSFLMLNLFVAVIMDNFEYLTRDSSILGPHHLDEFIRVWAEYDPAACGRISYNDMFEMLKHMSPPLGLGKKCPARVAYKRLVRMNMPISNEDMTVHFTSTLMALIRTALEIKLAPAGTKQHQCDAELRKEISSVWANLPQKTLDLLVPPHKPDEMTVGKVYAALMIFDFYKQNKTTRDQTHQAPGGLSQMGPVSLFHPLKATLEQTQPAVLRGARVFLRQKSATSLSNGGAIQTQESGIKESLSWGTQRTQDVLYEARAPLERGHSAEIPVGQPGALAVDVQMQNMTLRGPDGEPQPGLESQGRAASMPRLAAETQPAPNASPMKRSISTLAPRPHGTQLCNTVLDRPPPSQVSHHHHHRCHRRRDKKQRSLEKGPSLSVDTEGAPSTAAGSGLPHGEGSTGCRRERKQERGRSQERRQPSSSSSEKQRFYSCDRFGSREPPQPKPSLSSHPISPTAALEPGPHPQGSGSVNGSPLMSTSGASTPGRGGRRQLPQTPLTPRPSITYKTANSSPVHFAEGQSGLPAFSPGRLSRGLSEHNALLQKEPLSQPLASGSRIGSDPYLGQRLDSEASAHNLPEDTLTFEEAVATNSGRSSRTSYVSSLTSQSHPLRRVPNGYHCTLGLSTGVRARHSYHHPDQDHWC
# UniProt P15309, 33-386 limits assumed: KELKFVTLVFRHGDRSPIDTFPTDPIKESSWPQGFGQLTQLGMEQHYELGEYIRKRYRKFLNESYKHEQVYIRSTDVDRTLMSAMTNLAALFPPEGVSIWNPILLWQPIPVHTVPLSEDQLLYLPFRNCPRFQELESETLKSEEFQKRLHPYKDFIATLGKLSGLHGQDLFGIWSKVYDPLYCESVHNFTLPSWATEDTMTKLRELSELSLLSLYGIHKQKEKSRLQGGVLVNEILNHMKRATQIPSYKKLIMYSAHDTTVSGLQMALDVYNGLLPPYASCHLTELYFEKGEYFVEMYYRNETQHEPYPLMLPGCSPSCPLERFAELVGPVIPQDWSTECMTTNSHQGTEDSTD
# ± gives the spread as reported.
# Enoyl-[acyl-carrier-protein] reductase [NADH]: Enoyl-[acyl-carrier-protein] reductase [NADH] (Francisella tularensis subsp. tularensis, UniProt Q5NGQ3)
# Spike glycoprotein Beta variant: Spike glycoprotein, Beta variant (Severe acute respiratory syndrome coronavirus 2, UniProt P0DTC2)
# Cacna1b with α2δ, β3 subunits: Voltage-dependent N-type calcium channel subunit alpha-1B, with α2δ, β3 subunits (Cacna1b, Rattus norvegicus, UniProt Q02294)
Compound,target,assay,system,conditions,IC50
CC(=O)Nc1nc2ccccc2n1Cc1ccc(Cl)cc1,Enoyl-[acyl-carrier-protein] reductase [NADH],,,,> 100000 nM
O=C(NCc1ccc(F)cc1)C1C(=O)N(O)C(=O)c2cc(C(F)(F)F)ccc21 (stereo not shown),"Nucleoprotein, exonuclease domain (N, Lymphocytic choriomeningitis virus, UniProt P09992)","exonuclease activity, inhibitor",,,24000 ± 900 nM
CC[C@H](C)[C@H](NC(=O)[C@H](C)NC(=O)[C@H](CCC(=O)O)NC(=O)[C@H](CCC(=O)O)NC(=O)[C@H](CC(C)C)NC(=O)[C@H](CCCCN)NC(=O)[C@H](CCCCN)NC(=O)[C@H](CCSC)NC(=O)[C@H](CCC(=O)O)NC(=O)[C@H](Cc1ccc(O)cc1)NC(=O)[C@H](CCC(=O)O)NC(=O)[C@H](CC(C)C)NC(=O)[C@H](CC(=O)O)NC(=O)[C@H](CC(C)C)NC(=O)[C@H](Cc1ccccc1)NC(=O)[C@H](Cc1ccc(O)cc1)NC(=O)[C@@H](NC(=O)[C@H](CC(N)=O)NC(=O)[C@@H](NC(=O)[C@H](CCC(N)=O)NC(=O)[C@H](CC(=O)O)NC(=O)[C@H](CC(C)C)NC(=O)[C@@H](N)CO)[C@@H](C)CC)C(C)C)C(=O)N[C@@H](CCCCN)C(=O)N[C@@H](CCCCN)C(=O)N[C@@H](CC(C)C)C(=O)N[C@@H](CCC(=O)O)C(=O)N[C@@H](CCC(=O)O)C(=O)N[C@H](C(=O)N[C@@H](Cc1ccc(O)cc1)C(=O)N[C@H](C(=O)N[C@@H](CC(=O)O)C(=O)N[C@@H](CC(C)C)C(=O)N[C@@H](CCCCN)C(=O)N[C@@H](CCC(=O)O)C(=O)N[C@@H](CC(C)C)C(=O)O)[C@@H](C)CC)[C@@H](C)O,Spike glycoprotein Beta variant,"cell-cell fusion, inhibitor, luciferase fusion","293T donor, Huh-7 target","16 h, 37 °C, dual mutations",239 nM
C[C@@H]1NC(=O)[C@H](CCCNC(=N)N)NC(=O)[C@H](CCCNC(=N)N)NC(=O)[C@@H]2CSSC[C@@H]3NC(=O)[C@H](CO)NC(=O)CNC(=O)[C@H]([C@@H](C)O)NC(=O)[C@H](CSSC[C@H](N)C(=O)N[C@@H](CCCCN)C(=O)N[C@@H](CCCNC(=N)N)C(=O)N[C@@H](CCCCN)C(=O)NCC(=O)N[C@@H](CO)C(=O)N[C@@H](CO)C(=O)N2)NC(=O)[C@H](CSSC[C@@H](C(N)=O)NC(=O)[C@H](CCCCN)NC(=O)CNC(=O)[C@H](CC(N)=O)NC(=O)[C@H](CCCNC(=N)N)NC3=O)NC(=O)[C@H](CC(=O)O)NC(=O)[C@H](Cc2ccc(O)cc2)NC(=O)[C@H](CO)NC1=O,"Cacna1b with α2δ, β3 subunits","Ba2+ current, inhibitor, whole-cell patch clamp",HEK293 expressing α2δ and β3,"22 °C, together with: Ba2+ 20 mM",793 nM
CN1CCN(C(c2ccccc2)c2ccc(Cl)cc2)CC1 (stereo not shown),"Replicase polyprotein 1ab, nsp14 (rep, Severe acute respiratory syndrome-related coronavirus, UniProt P0C6X7)","enzyme activity, inhibitor",,,no inhibition
CC[C@H](C)[C@H](NC(=O)[C@H](C)NC(=O)[C@H](CCC(=O)O)NC(=O)[C@H](CCC(=O)O)NC(=O)[C@H](CC(C)C)NC(=O)[C@H](CCCCN)NC(=O)[C@H](CCCCN)NC(=O)[C@H](CCSC)NC(=O)[C@H](CCC(=O)O)NC(=O)[C@H](Cc1ccc(O)cc1)NC(=O)[C@H](CCC(=O)O)NC(=O)[C@H](CC(C)C)NC(=O)[C@H](CC(=O)O)NC(=O)[C@H](CC(C)C)NC(=O)[C@H](Cc1ccccc1)NC(=O)[C@H](Cc1ccccc1)NC(=O)[C@@H](NC(=O)[C@H](CC(N)=O)NC(=O)[C@@H](NC(=O)[C@H](CCC(N)=O)NC(=O)[C@H](CC(=O)O)NC(=O)[C@H](CC(C)C)NC(=O)[C@@H](N)CO)[C@@H](C)CC)C(C)C)C(=O)N[C@@H](CCCCN)C(=O)N[C@@H](CCCCN)C(=O)N[C@@H](CC(C)C)C(=O)N[C@@H](CCC(=O)O)C(=O)N[C@@H](CCC(=O)O)C(=O)N[C@@H](CO)C(=O)N[C@@H](Cc1ccc(O)cc1)C(=O)N[C@H](C(=O)N[C@@H](CC(=O)O)C(=O)N[C@@H](CC(C)C)C(=O)N[C@@H](CCCCN)C(=O)N[C@@H](CCC(=O)O)C(=O)N[C@@H](CC(C)C)C(=O)O)[C@@H](C)CC,"Spike glycoprotein (MERS-CoV, UniProt K9N5Q8)","cell-cell fusion, inhibitor, luciferase fusion","293T donor, Huh-7 target","16 h, 37 °C",927 nM
O=c1c(OCCO)c(SSc2cnn(-c3ccccc3)c(=O)c2OCCO)cnn1-c1ccccc1,"Sortase A (Bacillus anthracis str. H9401, UniProt P0DPQ5)",inhibitor,Bacillus anthracis,,330 ± 140 nM
CC(=O)c1nc2ccccc2n1Cc1ccc(Cl)cc1,Enoyl-[acyl-carrier-protein] reductase [NADH],,,,> 100000 nM
"Cc1ccc(NC2CNC2)cc1C(=O)N[C@H](C)c1cccc(-c2ccc(CN[C@H]3CC[C@@H](O)C3)s2)c1 (single isomer, unassigned)","Replicase polyprotein 1ab, papain-like protease (rep, Severe acute respiratory syndrome-related coronavirus, UniProt P0C6X7)",enzyme activity,,,128 ± 34 nM
CC(=NNC(=S)N1CCC1)c1ccccn1,"Botulinum neurotoxin type A, light chain (Clostridium botulinum, UniProt P0DPI0)",,,,400 ± 100 nM
CC[C@H](C)[C@H](NC(=O)[C@H](C)NC(=O)[C@H](CCC(=O)O)NC(=O)[C@H](CCC(=O)O)NC(=O)[C@H](CC(C)C)NC(=O)[C@H](CCCCN)NC(=O)[C@H](CCCCN)NC(=O)[C@H](CCSC)NC(=O)[C@H](CCC(=O)O)NC(=O)[C@H](Cc1ccc(O)cc1)NC(=O)[C@H](CCC(=O)O)NC(=O)[C@H](CC(C)C)NC(=O)[C@H](CC(=O)O)NC(=O)[C@H](CC(C)C)NC(=O)[C@H](Cc1ccccc1)NC(=O)[C@@H](NC(=O)[C@@H](NC(=O)[C@H](CC(N)=O)NC(=O)[C@@H](NC(=O)[C@H](CCC(N)=O)NC(=O)[C@H](CC(=O)O)NC(=O)[C@H](CC(C)C)NC(=O)[C@H](CO)NC(=O)[C@H](CC(C)C)NC(=O)[C@H](CC(=O)O)NC(=O)[C@@H]1CCCN1C(=O)[C@H](C)N)[C@@H](C)CC)C(C)C)[C@@H](C)O)C(=O)N[C@@H](CCCCN)C(=O)N[C@@H](CCCCN)C(=O)N[C@@H](CC(C)C)C(=O)N[C@@H](CCC(=O)O)C(=O)N[C@@H](CCC(=O)O)C(=O)N[C@@H](CO)C(=O)N[C@@H](Cc1ccc(O)cc1)C(=O)N[C@H](C(=O)N[C@@H](CC(=O)O)C(=O)N[C@@H](CC(C)C)C(=O)N[C@@H](CCCCN)C(=O)N[C@@H](CCC(=O)O)C(=O)N[C@@H](CC(C)C)C(=O)O)[C@@H](C)CC,Spike glycoprotein Beta variant,"cell-cell fusion, inhibitor, luciferase fusion","293T donor, Huh-7 target","16 h, 37 °C",20.6 nM
C[C@@H]1NC(=O)[C@H]([C@@H](C)O)NC(=O)[C@H](CCCNC(=N)N)NC(=O)[C@H](CCCNC(=N)N)NC(=O)[C@@H]2CSSC[C@@H]3NC(=O)[C@H](CO)NC(=O)CNC(=O)[C@H]([C@@H](C)O)NC(=O)[C@H](CSSC[C@H](N)C(=O)N[C@@H](CCCCN)C(=O)N[C@@H](CCCNC(=N)N)C(=O)N[C@@H](CCCCN)C(=O)NCC(=O)N[C@@H](CO)C(=O)N[C@@H](CO)C(=O)N2)NC(=O)[C@H](CSSC[C@@H](C(N)=O)NC(=O)[C@H](CCCCN)NC(=O)CNC(=O)[C@H](CC(N)=O)NC(=O)[C@H](CCCNC(=N)N)NC3=O)NC(=O)[C@H](CC(=O)O)NC(=O)[C@H](Cc2ccc(O)cc2)NC1=O,"Cacna1b with α2δ, β3 subunits","Ba2+ current, inhibitor, whole-cell patch clamp",HEK293 expressing α2δ and β3,"22 °C, together with: Ba2+ 20 mM",107 nM
CC[C@H](C)[C@H](NC(=O)[C@H](C)NC(=O)[C@H](CCC(=O)O)NC(=O)[C@H](CCC(=O)O)NC(=O)[C@H](CC(C)C)NC(=O)[C@H](CCCCN)NC(=O)[C@H](CCCCN)NC(=O)[C@H](CCSC)NC(=O)[C@H](CCC(=O)O)NC(=O)[C@H](Cc1ccc(O)cc1)NC(=O)[C@H](CCC(=O)O)NC(=O)[C@H](CC(C)C)NC(=O)[C@H](CC(=O)O)NC(=O)[C@H](CC(C)C)NC(=O)[C@H](Cc1ccccc1)NC(=O)[C@@H](NC(=O)[C@@H](NC(=O)[C@H](CC(N)=O)NC(=O)[C@@H](NC(=O)[C@H](CCC(N)=O)NC(=O)[C@H](CC(=O)O)NC(=O)[C@H](CC(C)C)NC(=O)[C@@H](N)CO)[C@@H](C)CC)C(C)C)[C@@H](C)O)C(=O)N[C@@H](CCCCN)C(=O)N[C@@H](CCCCN)C(=O)N[C@@H](CC(C)C)C(=O)N[C@@H](CCC(=O)O)C(=O)N[C@@H](CCC(=O)O)C(=O)N[C@@H](CO)C(=O)N[C@@H](Cc1ccc(O)cc1)C(=O)N[C@H](C(=O)N[C@@H](CC(=O)O)C(=O)N[C@@H](CC(C)C)C(=O)N[C@@H](CCCCN)C(=O)N[C@@H](CCC(=O)O)C(=O)N[C@@H](CC(C)C)C(=O)O)[C@@H](C)CC,"Spike glycoprotein (Severe acute respiratory syndrome coronavirus, UniProt P59594)","cell-cell fusion, inhibitor, luciferase fusion","293T donor, Huh-7 target","16 h, 37 °C",85.6 nM
Cc1ccc(-c2nnc3n2CC(CI)S3)cc1 (stereo not shown),"ACP3 (Homo sapiens, UniProt P15309)","enzyme activity, inhibitor",,"pH 7.0, 1% DMSO, together with: DiFMUP 59 µM",19300 nM
CN(C)c1ccc2c(n1)sc1c(N3CCNCC3)ncnc12,"Beta-glucuronidase (bglR, Clostridium perfringens, UniProt Q8XP19)","enzyme activity, inhibitor",,,14 ± 3 nM
CC[C@H](C)[C@H](NC(=O)[C@H](C)NC(=O)[C@H](CCC(=O)O)NC(=O)[C@H](CCC(=O)O)NC(=O)[C@H](CC(C)C)NC(=O)[C@H](CCCCN)NC(=O)[C@H](CCCCN)NC(=O)[C@H](CCSC)NC(=O)[C@H](CCC(=O)O)NC(=O)[C@H](Cc1ccc(O)cc1)NC(=O)[C@H](CCC(=O)O)NC(=O)[C@H](CC(C)C)NC(=O)[C@H](CC(=O)O)NC(=O)[C@H](CC(C)C)NC(=O)[C@H](Cc1ccccc1)NC(=O)[C@H](Cc1ccc(O)cc1)NC(=O)[C@@H](NC(=O)[C@H](CC(N)=O)NC(=O)[C@@H](NC(=O)[C@H](CCC(N)=O)NC(=O)[C@H](CC(=O)O)NC(=O)[C@H](CC(C)C)NC(=O)[C@@H](N)CO)[C@@H](C)CC)C(C)C)C(=O)N[C@@H](CCCCN)C(=O)N[C@@H](CCCCN)C(=O)N[C@@H](CC(C)C)C(=O)N[C@@H](CCC(=O)O)C(=O)N[C@@H](CCC(=O)O)C(=O)N[C@@H](CO)C(=O)N[C@@H](Cc1ccc(O)cc1)C(=O)N[C@H](C(=O)N[C@@H](CC(=O)O)C(=O)N[C@@H](CC(C)C)C(=O)N[C@@H](CCCCN)C(=O)N[C@@H](CCC(=O)O)C(=O)N[C@@H](CC(C)C)C(=O)O)[C@@H](C)CC,"Spike glycoprotein (Severe acute respiratory syndrome coronavirus, UniProt P59594)","cell-cell fusion, inhibitor, luciferase fusion","293T donor, Huh-7 target","16 h, 37 °C",26.9 nM

# A few entries again:
Compound,target,assay,system,conditions,IC50
CC[C@H](C)[C@H](NC(=O)[C@H](C)NC(=O)[C@H](CCC(=O)O)NC(=O)[C@H](CCC(=O)O)NC(=O)[C@H](CC(C)C)NC(=O)[C@H](CCCCN)NC(=O)[C@H](CCCCN)NC(=O)[C@H](CCSC)NC(=O)[C@H](CCC(=O)O)NC(=O)[C@H](Cc1ccc(O)cc1)NC(=O)[C@H](CCC(=O)O)NC(=O)[C@H](CC(C)C)NC(=O)[C@H](CC(=O)O)NC(=O)[C@H](CC(C)C)NC(=O)[C@H](Cc1ccccc1)NC(=O)[C@H](Cc1ccc(O)cc1)NC(=O)[C@@H](NC(=O)[C@H](CC(N)=O)NC(=O)[C@@H](NC(=O)[C@H](CCC(N)=O)NC(=O)[C@H](CC(=O)O)NC(=O)[C@H](CC(C)C)NC(=O)[C@@H](N)CO)[C@@H](C)CC)C(C)C)C(=O)N[C@@H](CCCCN)C(=O)N[C@@H](CCCCN)C(=O)N[C@@H](CC(C)C)C(=O)N[C@@H](CCC(=O)O)C(=O)N[C@@H](CCC(=O)O)C(=O)N[C@@H](CO)C(=O)N[C@@H](Cc1ccc(O)cc1)C(=O)N[C@H](C(=O)N[C@@H](CC(=O)O)C(=O)N[C@@H](CC(C)C)C(=O)N[C@@H](CCCCN)C(=O)N[C@@H](CCC(=O)O)C(=O)N[C@@H](CC(C)C)C(=O)O)[C@@H](C)CC,"Spike glycoprotein (Severe acute respiratory syndrome coronavirus, UniProt P59594)","cell-cell fusion, inhibitor, luciferase fusion","293T donor, Huh-7 target","16 h, 37 °C",26.9 nM
Cc1ccc(-c2nnc3n2CC(CI)S3)cc1 (stereo not shown),"ACP3 (Homo sapiens, UniProt P15309)","enzyme activity, inhibitor",,"pH 7.0, 1% DMSO, together with: DiFMUP 59 µM",19300 nM
